# Assay results collected from several papers.
# A part holds a random share of what one study measured.
# UniProt Q8WU08, sequence (whole entry, looked up): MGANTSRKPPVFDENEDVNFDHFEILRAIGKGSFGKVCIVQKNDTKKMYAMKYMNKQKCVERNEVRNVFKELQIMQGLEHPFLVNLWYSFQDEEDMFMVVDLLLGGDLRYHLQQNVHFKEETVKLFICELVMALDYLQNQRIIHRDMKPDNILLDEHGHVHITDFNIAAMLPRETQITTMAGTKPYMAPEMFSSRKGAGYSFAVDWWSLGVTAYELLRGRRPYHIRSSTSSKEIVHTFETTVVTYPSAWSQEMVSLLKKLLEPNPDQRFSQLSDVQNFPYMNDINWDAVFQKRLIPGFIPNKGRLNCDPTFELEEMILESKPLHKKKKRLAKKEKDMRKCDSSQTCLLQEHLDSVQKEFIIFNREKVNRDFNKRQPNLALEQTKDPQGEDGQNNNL
# UniProt P31749, sequence (whole entry, looked up): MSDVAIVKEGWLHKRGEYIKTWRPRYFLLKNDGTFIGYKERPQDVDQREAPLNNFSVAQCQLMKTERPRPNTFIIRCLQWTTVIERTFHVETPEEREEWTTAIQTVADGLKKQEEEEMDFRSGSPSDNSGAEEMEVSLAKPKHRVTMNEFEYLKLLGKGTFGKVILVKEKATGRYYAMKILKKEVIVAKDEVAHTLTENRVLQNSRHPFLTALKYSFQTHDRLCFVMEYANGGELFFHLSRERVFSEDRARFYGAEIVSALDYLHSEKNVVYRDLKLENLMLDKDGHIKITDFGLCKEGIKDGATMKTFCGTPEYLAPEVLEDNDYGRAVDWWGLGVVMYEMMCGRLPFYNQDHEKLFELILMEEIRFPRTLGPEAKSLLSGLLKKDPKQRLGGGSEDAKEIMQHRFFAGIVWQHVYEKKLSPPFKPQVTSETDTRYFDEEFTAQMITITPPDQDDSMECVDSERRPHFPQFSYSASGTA
# UniProt O00141, sequence (whole entry, looked up): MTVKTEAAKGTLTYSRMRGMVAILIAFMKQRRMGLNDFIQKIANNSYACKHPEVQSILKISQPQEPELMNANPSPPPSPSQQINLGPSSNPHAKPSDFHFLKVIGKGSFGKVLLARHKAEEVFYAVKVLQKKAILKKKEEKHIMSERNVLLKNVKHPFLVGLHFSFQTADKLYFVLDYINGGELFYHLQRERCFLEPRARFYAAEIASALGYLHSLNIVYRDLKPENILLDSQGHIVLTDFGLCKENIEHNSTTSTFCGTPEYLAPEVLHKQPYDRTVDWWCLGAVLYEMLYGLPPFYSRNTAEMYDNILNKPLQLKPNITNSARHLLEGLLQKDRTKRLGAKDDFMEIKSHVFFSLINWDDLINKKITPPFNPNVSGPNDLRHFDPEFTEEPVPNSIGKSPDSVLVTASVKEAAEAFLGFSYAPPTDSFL
# UniProt Q96GD4, sequence (whole entry, looked up): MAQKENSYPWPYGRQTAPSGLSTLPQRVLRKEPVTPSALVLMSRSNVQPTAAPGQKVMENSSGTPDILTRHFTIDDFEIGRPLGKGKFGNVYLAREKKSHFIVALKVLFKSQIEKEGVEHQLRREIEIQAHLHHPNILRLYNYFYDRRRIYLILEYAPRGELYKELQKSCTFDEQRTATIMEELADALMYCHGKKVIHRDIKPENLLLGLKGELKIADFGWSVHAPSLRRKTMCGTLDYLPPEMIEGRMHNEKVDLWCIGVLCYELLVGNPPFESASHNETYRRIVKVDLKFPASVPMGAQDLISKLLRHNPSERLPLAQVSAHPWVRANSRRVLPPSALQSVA
# UniProt P42336, sequence (whole entry, looked up): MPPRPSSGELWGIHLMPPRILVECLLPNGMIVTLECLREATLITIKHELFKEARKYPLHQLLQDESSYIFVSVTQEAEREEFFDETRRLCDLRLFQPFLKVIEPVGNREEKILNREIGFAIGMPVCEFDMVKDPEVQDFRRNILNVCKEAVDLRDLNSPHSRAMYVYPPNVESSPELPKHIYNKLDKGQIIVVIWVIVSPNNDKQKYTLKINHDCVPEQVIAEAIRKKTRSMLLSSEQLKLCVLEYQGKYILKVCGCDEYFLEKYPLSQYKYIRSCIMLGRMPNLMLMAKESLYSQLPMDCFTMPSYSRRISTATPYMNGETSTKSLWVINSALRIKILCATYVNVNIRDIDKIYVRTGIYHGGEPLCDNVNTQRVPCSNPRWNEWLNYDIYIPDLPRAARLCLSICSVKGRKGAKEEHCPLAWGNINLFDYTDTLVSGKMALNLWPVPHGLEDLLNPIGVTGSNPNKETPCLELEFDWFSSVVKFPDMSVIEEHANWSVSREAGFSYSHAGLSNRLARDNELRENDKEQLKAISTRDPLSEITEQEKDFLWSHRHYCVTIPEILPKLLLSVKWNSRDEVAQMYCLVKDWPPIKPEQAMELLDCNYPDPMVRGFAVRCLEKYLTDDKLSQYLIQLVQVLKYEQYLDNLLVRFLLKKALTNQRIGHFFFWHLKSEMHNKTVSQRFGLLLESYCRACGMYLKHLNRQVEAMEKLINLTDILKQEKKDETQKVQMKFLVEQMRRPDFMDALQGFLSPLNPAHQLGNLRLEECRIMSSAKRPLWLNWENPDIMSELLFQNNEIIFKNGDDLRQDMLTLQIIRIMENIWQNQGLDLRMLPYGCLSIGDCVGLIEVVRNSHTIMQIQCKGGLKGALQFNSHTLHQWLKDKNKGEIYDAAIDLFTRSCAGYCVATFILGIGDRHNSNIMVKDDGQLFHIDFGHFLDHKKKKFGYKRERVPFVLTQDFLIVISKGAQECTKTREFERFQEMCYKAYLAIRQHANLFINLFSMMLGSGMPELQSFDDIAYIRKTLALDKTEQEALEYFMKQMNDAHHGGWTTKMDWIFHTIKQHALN
# UniProt P49760, sequence (whole entry, looked up): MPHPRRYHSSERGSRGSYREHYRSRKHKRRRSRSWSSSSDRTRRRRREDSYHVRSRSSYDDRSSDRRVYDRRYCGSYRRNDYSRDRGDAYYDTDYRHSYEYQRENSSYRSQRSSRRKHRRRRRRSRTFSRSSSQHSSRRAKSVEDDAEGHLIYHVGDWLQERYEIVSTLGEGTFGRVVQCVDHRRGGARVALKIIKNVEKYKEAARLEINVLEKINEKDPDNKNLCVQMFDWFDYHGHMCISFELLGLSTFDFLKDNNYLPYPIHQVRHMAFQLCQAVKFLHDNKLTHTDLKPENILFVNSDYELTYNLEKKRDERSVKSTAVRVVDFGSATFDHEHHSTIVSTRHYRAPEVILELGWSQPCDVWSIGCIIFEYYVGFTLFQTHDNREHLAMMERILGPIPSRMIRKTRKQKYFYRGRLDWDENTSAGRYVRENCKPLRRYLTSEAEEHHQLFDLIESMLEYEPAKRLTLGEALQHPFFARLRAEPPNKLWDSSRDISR
# UniProt O60331, sequence (whole entry, looked up): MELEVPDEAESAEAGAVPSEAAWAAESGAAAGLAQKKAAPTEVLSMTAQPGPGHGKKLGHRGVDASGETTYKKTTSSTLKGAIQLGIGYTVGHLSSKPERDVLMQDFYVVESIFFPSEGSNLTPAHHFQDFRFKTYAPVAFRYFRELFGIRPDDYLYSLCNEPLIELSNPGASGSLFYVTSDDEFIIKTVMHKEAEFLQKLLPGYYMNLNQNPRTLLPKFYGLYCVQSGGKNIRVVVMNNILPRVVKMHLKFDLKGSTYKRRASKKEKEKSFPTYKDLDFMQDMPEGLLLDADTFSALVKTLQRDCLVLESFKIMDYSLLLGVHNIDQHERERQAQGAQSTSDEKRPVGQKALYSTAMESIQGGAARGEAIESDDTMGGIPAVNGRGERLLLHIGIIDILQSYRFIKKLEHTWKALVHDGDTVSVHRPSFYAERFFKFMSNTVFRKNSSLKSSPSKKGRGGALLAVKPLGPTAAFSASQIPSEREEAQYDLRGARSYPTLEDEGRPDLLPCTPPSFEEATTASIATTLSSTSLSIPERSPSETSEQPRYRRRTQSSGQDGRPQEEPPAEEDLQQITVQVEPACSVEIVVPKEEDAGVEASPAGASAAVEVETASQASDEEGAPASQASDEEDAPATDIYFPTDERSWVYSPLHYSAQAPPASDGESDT
# UniProt Q8N752, sequence (whole entry, looked up): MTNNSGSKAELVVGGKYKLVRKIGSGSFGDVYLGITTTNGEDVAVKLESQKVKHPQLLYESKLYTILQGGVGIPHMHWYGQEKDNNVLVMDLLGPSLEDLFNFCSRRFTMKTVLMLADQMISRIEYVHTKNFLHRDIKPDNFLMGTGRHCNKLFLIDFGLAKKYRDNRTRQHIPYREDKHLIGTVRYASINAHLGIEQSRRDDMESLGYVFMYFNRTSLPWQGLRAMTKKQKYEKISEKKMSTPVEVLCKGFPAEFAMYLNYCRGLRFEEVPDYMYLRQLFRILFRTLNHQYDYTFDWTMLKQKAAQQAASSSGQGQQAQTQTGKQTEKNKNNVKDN
# UniProt O43293, sequence (whole entry, looked up): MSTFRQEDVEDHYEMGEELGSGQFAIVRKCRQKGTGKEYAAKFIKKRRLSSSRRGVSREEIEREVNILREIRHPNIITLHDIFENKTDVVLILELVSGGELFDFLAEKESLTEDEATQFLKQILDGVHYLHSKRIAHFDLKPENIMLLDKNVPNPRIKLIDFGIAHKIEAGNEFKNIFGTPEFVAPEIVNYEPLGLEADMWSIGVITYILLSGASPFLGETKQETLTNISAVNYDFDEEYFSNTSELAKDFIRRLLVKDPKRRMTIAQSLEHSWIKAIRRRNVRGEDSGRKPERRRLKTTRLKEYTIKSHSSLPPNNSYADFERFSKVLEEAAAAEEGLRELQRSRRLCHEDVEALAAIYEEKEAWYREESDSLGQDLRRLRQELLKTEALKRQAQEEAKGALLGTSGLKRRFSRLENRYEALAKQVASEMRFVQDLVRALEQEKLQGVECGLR
# UniProt Q9P1W9, sequence (whole entry, looked up): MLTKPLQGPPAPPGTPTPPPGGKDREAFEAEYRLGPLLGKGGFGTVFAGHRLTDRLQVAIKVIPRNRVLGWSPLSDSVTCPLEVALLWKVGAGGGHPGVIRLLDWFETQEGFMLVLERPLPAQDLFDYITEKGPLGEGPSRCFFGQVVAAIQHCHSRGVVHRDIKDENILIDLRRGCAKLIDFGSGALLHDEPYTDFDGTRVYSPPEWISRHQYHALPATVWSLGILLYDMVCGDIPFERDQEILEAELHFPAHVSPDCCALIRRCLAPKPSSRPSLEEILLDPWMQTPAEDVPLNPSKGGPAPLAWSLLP

# Block 1 — effect on: enzyme activity; mode: inhibitor; tested at: 1 µM
# Structure (SMILES): CC#CC(=O)N1CCC[C@H]1c1nc(-c2ccc(C(=O)Nc3ccccn3)cc2)c2c(N)nccn12
target,inhibition [%]
"PRKACA (Homo sapiens, UniProt P17612)",6
"DAPK3 (Homo sapiens, UniProt O43293)",13
"FLT3 (Homo sapiens, UniProt P36888, R834Q)",0
"MAP3K2 (Homo sapiens, UniProt Q9Y2U5)",0
"FGFR2 (Homo sapiens, UniProt P21802)",2
"Aurora kinase B (AURKB, Homo sapiens, UniProt Q96GD4)",9
"SIK3 (Homo sapiens, UniProt Q9Y2K2)",2
"RIPK1 (Homo sapiens, UniProt Q13546)",18

# Block 2 — dose: dose not given; relative to: vehicle
# Compound: CC(=O)N[C@@H](Cc1c[nH]c2ccccc12)C(=O)N[C@@H](CCC(=O)C=[N+]=[N-])C(=O)OC(C)C
test,system,log2 fold change
refers to: mannonate*,"mouse, EL4 tumour-bearing, EL4 tumour",0.128
refers to: asparagine,"mouse, EL4 tumour-bearing, EL4 tumour",0.323
refers to: alpha-ketoglutarate,"mouse, EL4 tumour-bearing, EL4 tumour",-0.14
refers to: 5-methylcytidine,"mouse, EL4 tumour-bearing, EL4 tumour",-1.1
refers to: dehydroascorbate,"mouse, EL4 tumour-bearing, EL4 tumour",1.14
refers to: 2'-deoxyadenosine 5'-monophosphate,"mouse, EL4 tumour, tumour",-1.46
refers to: 3-amino-2-piperidone,"mouse, EL4 tumour-bearing, EL4 tumour",0.00166
refers to: alpha-hydroxyisovalerate,"mouse, EL4 tumour-bearing, EL4 tumour",-0.0606
refers to: gamma-glutamylglycine,"mouse, EL4 tumour-bearing, EL4 tumour",-0.892

# Block 3 — Structure (SMILES): CCN(CC)CCCCN1c2ccccc2Oc2ccc(Cl)cc21; effect on: enzyme activity; mode: inhibitor; method: radiometric
target,IC50
"PIM2 (Homo sapiens, UniProt Q9P1W9)",> 30 µM
"PIM3 (Homo sapiens, UniProt Q86V86)",0.514 µM
"AKT1 (Homo sapiens, UniProt P31749)",> 30 µM

# Block 4 — method: competition with immobilised ligand; tested at: 1 µM
# SMILES: C[C@@H](c1cccc(C#N)c1)n1cc(Cl)cc(C(N)=O)c1=N
target,test,remaining binding [%]
"CSNK1A1L (Homo sapiens, UniProt Q8N752)",cell-free assay,82
"CLK2 (Homo sapiens, UniProt P49760)",cell-free assay,100
"SGK1 (Homo sapiens, UniProt O00141)",cell-free assay,100
"CSNK2A1 (Homo sapiens, UniProt P68400)",cell-free assay,72
"PIP5K1A (Homo sapiens, UniProt Q99755)",cell-free assay,100
"HIPK3 (Homo sapiens, UniProt Q9H422)",cell-free assay,70
"PIP5K1C (Homo sapiens, UniProt O60331)",cell-free assay,100
"STK38L (Homo sapiens, UniProt Q9Y2H1)",binding,85
"PIK3CA (Homo sapiens, UniProt P42336)",cell-free assay,100
"CSF1R (Homo sapiens, UniProt P07333)",cell-free assay,100
"EGFR (Homo sapiens, UniProt P00533, del747-750/T751S)",cell-free assay,100
"MAPK12 (Homo sapiens, UniProt P53778)",cell-free assay,73
"STK32A (Homo sapiens, UniProt Q8WU08)",binding,100
"IRAK3 (Homo sapiens, UniProt Q9Y616)",cell-free assay,99
"NEK2 (Homo sapiens, UniProt P51955)",cell-free assay,100
"CDK15 (Homo sapiens, UniProt Q96Q40)",cell-free assay,89
"LATS1 (Homo sapiens, UniProt O95835)",cell-free assay,69

# Repeated from above (block 4):
target,test,remaining binding [%]
"PIK3CA (Homo sapiens, UniProt P42336)",cell-free assay,100
"CSF1R (Homo sapiens, UniProt P07333)",cell-free assay,100
"EGFR (Homo sapiens, UniProt P00533, del747-750/T751S)",cell-free assay,100
"MAPK12 (Homo sapiens, UniProt P53778)",cell-free assay,73
"STK32A (Homo sapiens, UniProt Q8WU08)",binding,100
"IRAK3 (Homo sapiens, UniProt Q9Y616)",cell-free assay,99
